Results from different studies.
Lines come from different studies, so protocols differ. Values joined by “and” are separate records of one study, mostly repeats; a detail may differ. ± gives the spread as reported.

O=C(C[Se]C(=O)c1ccccc1)Nc1cccc(C(F)(F)F)c1 — mean TGI (NCI60 leukaemia subpanel; NCI60 five-dose screen): 6.1 µM
NC(=S)N/N=C/c1ccc(OCc2ccccc2)cc1 — glutathione peroxidase activity (OD450) (IMR-32; measured: GPX3; 400 µg/mL, 24 h; higher = more activity): 0.157 a.u.
N[C@H](C(=O)N1CCCC1)C1CCN(c2nccc3c(-c4ncc(Cl)cc4Cl)cccc23)CC1 — inhibition (human neutrophils; protein citrullination, inhibitor, flow cytometry, measured: citrullinated proteins; 31.6 nM, with: ionomycin): 10.4% and 10.3% and 18.6% and 3.55%
CC(C)(C)C(=O)OCOP(=O)(OCOC(=O)C(C)(C)C)C1CCCN(O)C1=O (stereo not shown) — GI50 (EKVX): 0.657 µM
O=C(C[Se]C(=O)c1cccs1)Nc1cccc(C(F)(F)F)c1 — GI50 (NCI60 leukaemia subpanel; NCI60 five-dose screen): 2.81 µM
CC1CCC2C(C)C(OC(=O)CCC(=O)N3CCC(Nc4ccc(S(=O)(=O)NC(=O)c5ccc(N6CCN(CC7=C(c8ccc(Cl)cc8)CC(C)(C)CC7)CC6)cc5Oc5cnc6[nH]ccc6c5)cc4[N+](=O)[O-])CC3)OC3OC4(C)CCC1C32OO4 (stereo not shown) — necrotic cells (K562; annexin V/PI flow cytometry, measured: annexin V-/PI+; 3.2 µM, 24 h): 0.3%
O=C(O)c1ccc(-c2nc(-c3ccccc3Cl)c3sccn23)cc1 — S phase cells (K562; flow cytometry; concentration not given; reference: cells): 30.7% and 30.5% and 31.6%
Cc1cc(Oc2nc(N3CC[C@@H](c4ccncc4)C3)ncc2F)[nH]n1 — IC50 (colon cancer cell lines; cell proliferation; average over lines): 44.7 µM
CC(C)CC(O)(CC(C)C)c1cn(C(=O)N2CCCC2)nn1 — protein level (mouse T-cells; SILAC proteomics, measured: UQCRH; 1 nM, 6 h, unit not given; reference: DMSO): 0.9
CC[C@H](C)[C@H](NC(=O)[C@H](C)NC(=O)CNC(=O)[C@H](Cc1ccccc1)NC(=O)[C@H](CC(N)=O)NC(=O)[C@H](CC(N)=O)NC(=O)[C@H](CO[C@@H]1O[C@H](CO)[C@@H](O)[C@H](O)[C@H]1NC(C)=O)NC(=O)[C@H](CO)NC(=O)[C@H](Cc1c[nH]cn1)NC(=O)[C@@H](NC(=O)[C@H](CC(C)C)NC(=O)[C@H](Cc1ccccc1)NC(=O)[C@H](CC(N)=O)NC(=O)[C@H](C)NC(=O)[C@@H](N)CC(C)C)C(C)C)C(=O)N[C@@H](CC(C)C)C(N)=O — viability (INS-1; MTT; 1 equivalents to hIAPP, 24 h, with: hIAPP 1 µM): 66.5%
CC(C)[C@H](NC(=O)[C@H](CCCNC(=N)N)NC(=O)[C@@H]1CCCN1C(=O)[C@@H](NC(=O)[C@H](C)NC(=O)[C@H](Cc1ccc(O)cc1)NC(=O)[C@H](CCC(N)=O)NC(=O)[C@H](CCCCN)NC(=O)[C@H](CCCNC(=N)N)NC(=O)[C@@H]1CCCN1C(=O)[C@H](CCC(=O)O)NC(=O)[C@@H](NC(=O)[C@H](C)N)[C@@H](C)O)[C@@H](C)O)C(=O)N[C@@H](Cc1ccccc1)C(=O)N[C@@H](Cc1c[nH]c2ccccc12)C(=O)N[C@H](C(=O)N[C@@H](CC(=O)O)C(=O)N[C@@H](C)C(=O)N1CCC[C@H]1C(=O)NCC(=O)NCCOCCOCCOCCOCCOCCOCCOCCOCCOCCOCCOCCOCCC(=O)N[C@@H](CS)C(N)=O)[C@@H](C)O — selectivity ratio (H1299 lung large cell carcinoma; cell binding, phage binding, measured: output/input phage; 10 min, 37 °C; reference: control phage): 170 ± 75
COc1ccccc1-c1ccncc1C(=O)Nc1nnc(OCc2ccc(Cl)cc2)s1 — colony survival (DLD-1 BRCA2-/-; 0.06 µM, single replicate; reference: untreated): 84.5% and 101% and 94%
CC(C)C[C@H](NC(=O)[C@H](CC(=O)O)NC(=O)CNC(=O)[C@@H](N)CCCNC(=N)N)C(=O)N[C@@H](C)C(=O)N[C@H](C(=O)N[C@@H](CC(C)C)C(=O)N[C@@H](CCCNC(=N)N)C(=O)N[C@@H](CCC(N)=O)C(=O)N[C@@H](CC(C)C)C(=O)N[C@@H](C)C(=O)N[C@@H](CCC(N)=O)C(=O)N[C@@H](CCC(=O)O)C(=O)N[C@@H](CC(=O)O)C(=O)NCC(=O)N[C@H](C(=O)N[C@H](C(=O)NCC(=O)N[C@H](C(=O)N[C@@H](CCCNC(=N)N)C(=O)NCCOCCOCCOCCOCCOCCOCCOCCOCCOCCOCCOCCOCCC(=O)N[C@@H](CS)C(N)=O)C(C)C)C(C)C)C(C)C)[C@@H](C)O — selectivity ratio (HCC95; phage binding; reference: targeting over control phage): 1.8 ± 0.74
O=C(C[Se]C(=O)c1ccco1)Nc1cccc(C(F)(F)F)c1 — mean TGI (NCI60 leukaemia subpanel; NCI60 five-dose screen): 60.3 µM
CC(C)C12OC1C1OC13C1(C)CCC4=C(COC4=O)C1CC1OC13C2OC(=O)CCC(=O)OC1OC(CO)C(O)C(O)C1O (stereo not shown) — IC50 (CFPAC-1; cell growth or viability, XTT; 47 h): 0.51 µM
CC(=O)NCSC[C@H](NC(=O)[C@@H]1CCCN1C(=O)[C@H](C)NC(=O)[C@@H](NC(=O)CNC(=O)[C@@H](NC(=O)[C@H](Cc1c[nH]c2ccccc12)NC(=O)[C@H](C)NC(=O)CNC(=O)[C@H](CO)NC(=O)[C@H](C)NC(=O)[C@@H]1CCCN1C(=O)[C@H](Cc1c[nH]c2ccccc12)NC(=O)[C@H](C)NC(=O)[C@H](C)NC(=O)[C@@H](N)Cc1ccc(O)cc1)[C@@H](C)O)[C@@H](C)O)C(=O)N[C@@H](CO)C(=O)N[C@@H](C)C(=O)NCC(=O)N[C@H](C(=O)NCCOCCOCCOCCOCCOCCOCCOCCOCCOCCOCCOCCOCCC(=O)N[C@@H](CS)C(N)=O)[C@@H](C)O — selectivity ratio (MCF7 breast cancer; cell binding, phage binding, measured: output/input phage; 10 min, 37 °C; reference: control phage): 2.6 ± 2.3

A few entries again:
N[C@H](C(=O)N1CCCC1)C1CCN(c2nccc3c(-c4ncc(Cl)cc4Cl)cccc23)CC1 — inhibition (human neutrophils; protein citrullination, inhibitor, flow cytometry, measured: citrullinated proteins; 31.6 nM, with: ionomycin): 10.4% and 10.3% and 18.6% and 3.55%
CC(C)(C)C(=O)OCOP(=O)(OCOC(=O)C(C)(C)C)C1CCCN(O)C1=O (stereo not shown) — GI50 (EKVX): 0.657 µM
